Results from different studies.
Compare with care: the assays were run in different laboratories. Numbers after ± are the reported error.
Target: Dual specificity mitogen-activated protein kinase kinase 2 (MAP2K2, Homo sapiens, UniProt P36507)
UniProt P36507, sequence (whole entry, looked up): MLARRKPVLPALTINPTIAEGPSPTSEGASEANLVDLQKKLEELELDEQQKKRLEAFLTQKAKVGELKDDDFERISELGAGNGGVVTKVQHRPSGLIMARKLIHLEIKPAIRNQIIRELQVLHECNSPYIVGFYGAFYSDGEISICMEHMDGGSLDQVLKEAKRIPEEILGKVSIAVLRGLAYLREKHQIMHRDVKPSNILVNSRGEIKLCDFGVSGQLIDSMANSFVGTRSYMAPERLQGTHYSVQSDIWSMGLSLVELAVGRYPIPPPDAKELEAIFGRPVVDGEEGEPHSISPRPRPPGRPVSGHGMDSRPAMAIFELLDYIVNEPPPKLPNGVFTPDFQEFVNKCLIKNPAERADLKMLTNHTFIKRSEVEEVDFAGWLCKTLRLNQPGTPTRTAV

[2H]c1cc(C)c(NC(=O)c2cnc(Nc3cc(N4CCCCC4)nc(C)n3)s2)c(Cl)c1
inhibition (0.01 µM): < 30%

CC#CC(=O)N1CCC[C@H]1c1nc(-c2ccc(C(=O)Nc3ccccn3)cc2)c2c(N)nccn12
remaining activity (kinase activity, inhibitor, HotSpot radiometric; 100 nM, with: ATP 10 µM): 94.5 ± 1.7%

CNc1ncc2c(/C=C/C(=O)N3CCC(OC)CC3)nn(Cc3cccc(C(F)(F)F)c3)c2n1
remaining activity (kinase activity, inhibitor; 1 µM; reference: untreated control): 84%

COc1ccc(F)cc1C(=O)NCc1ccc(-c2nn([C@@H](C)C(F)(F)F)c(N)c2C(N)=O)cc1
remaining activity (kinase activity, inhibitor, HotSpot radiometric; 1000 nM, with: ATP at Km): 7.6 ± 0.6%

c1cnc2ccc(Nc3nc(NC4CC4)c4nc[nH]c4n3)cc2c1
remaining activity (kinase activity, inhibitor, SelectScreen kinase profiling; 1 µM; reference: control): 83%

CC/C(=N\NC(=O)NCc1cccc(O)c1)c1ccc(O)c(C)c1O
inhibition (kinase activity; 0.1 µM): -1.7%

O=C(NC1CCC1)c1ccc2nc(-c3cccc(NS(=O)(=O)NCCN4CCCCC4)c3)cn2c1
remaining activity (enzyme activity; 10 µM): 89%

O=C1NC(=O)/C(=C/c2ccc(-c3ccc(F)cc3O)o2)S1
remaining activity (enzyme activity; 10 µM): 77%
